# Results collected from several papers.
# Every numbered part comes from another study and shows a few of its results, in no order.

# Block 1 — method: aptamer microarray, sandwich; molecule type: DNA with 2'F-ANA; matrix: in vitro; tested at: 200 nM; together with: Cy3 exosite-II aptamer, 400 nM; reading: higher = stronger binding; oligonucleotide: GGTTGGTGTGGTTGG
# Target: Prothrombin, mature alpha-thrombin (F2, Homo sapiens, UniProt P00734)
# Notes: whole 15-mer aptamer, many near background
Modification,mean fluorescence intensity [a.u.]
2'F-ANA at 1 3 4 5 10 11 12 14 15,49.1
2'F-ANA at 3 5 6 9 14 15,49.5
2'F-ANA at 1 3 7 8 12 14,179
2'F-ANA at 1 8 10 15,58.3
2'F-ANA at 1 2 3 6 8 9 10 12 15,84

# Block 2 — method: protein binding microarray; molecule type: double-stranded DNA, one strand shown; matrix: in vitro; tested at: not given; relative to: not given; reading: higher = stronger binding
# Target: Histone acetyltransferase KAT6A, winged helix 2, GST fusion (KAT6A, Homo sapiens, UniProt Q92794, residues 85-181)
# Notes: 8-mer, flanks averaged, mean of 2 arrays, mostly near background
# Target sequence (chain): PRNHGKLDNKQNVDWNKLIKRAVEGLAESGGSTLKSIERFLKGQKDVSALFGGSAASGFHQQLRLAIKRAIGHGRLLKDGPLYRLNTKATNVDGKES
Oligonucleotide,E-score
ACGTATAA,-0.156
AGGGTTTA,0.0953
AAAGGAAT,-0.0917
ATATACTC,-0.217
GGTGCATA,0.109

# Block 3 — method: universal PBM; molecule type: double-stranded DNA, one strand shown; matrix: in vitro; tested at: 600 nM; reading: higher = stronger binding
# Target: Sal-like protein 4, full length isoform A (SALL4, Homo sapiens, UniProt Q9UJQ4, residues 1-1053)
# Sequence of UniProt Q9UJQ4 (whole entry, looked up): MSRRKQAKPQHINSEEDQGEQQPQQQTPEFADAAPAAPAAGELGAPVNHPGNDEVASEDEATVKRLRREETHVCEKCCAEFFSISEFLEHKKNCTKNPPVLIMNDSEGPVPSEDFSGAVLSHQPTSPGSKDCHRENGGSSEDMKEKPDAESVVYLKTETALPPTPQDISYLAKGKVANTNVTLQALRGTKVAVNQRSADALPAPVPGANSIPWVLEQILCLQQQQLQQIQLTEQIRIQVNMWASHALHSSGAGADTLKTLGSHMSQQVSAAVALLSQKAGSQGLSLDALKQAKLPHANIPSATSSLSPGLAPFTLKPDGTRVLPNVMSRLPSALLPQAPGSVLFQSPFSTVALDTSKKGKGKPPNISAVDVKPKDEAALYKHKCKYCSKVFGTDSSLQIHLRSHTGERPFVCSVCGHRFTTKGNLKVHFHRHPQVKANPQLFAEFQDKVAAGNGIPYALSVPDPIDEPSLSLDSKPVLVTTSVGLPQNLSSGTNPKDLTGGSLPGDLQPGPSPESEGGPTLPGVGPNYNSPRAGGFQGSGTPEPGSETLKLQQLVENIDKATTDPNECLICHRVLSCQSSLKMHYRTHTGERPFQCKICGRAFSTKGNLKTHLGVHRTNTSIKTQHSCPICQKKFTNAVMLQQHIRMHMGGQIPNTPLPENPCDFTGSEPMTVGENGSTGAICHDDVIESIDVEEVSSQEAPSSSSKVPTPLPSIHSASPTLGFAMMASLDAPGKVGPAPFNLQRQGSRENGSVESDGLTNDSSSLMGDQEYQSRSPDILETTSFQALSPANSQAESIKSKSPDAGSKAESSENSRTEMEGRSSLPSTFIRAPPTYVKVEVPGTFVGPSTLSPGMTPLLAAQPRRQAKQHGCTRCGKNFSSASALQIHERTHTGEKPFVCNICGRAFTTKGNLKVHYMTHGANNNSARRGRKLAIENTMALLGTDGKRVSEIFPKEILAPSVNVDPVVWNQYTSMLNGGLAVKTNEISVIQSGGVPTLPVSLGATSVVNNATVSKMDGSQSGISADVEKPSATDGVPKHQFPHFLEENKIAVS
# Notes: 8-mer, flanks averaged, mean of replicates
Oligonucleotide,E-score
CAGATTGA,-0.0816
CGAGCCCC,-0.317
TCATCGAA,0.138
GGGGATCA,-0.189
AAGAAAGT,0.126

# Single results of other studies
Substance,target,test,system,setting,scale,endpoint,value
"PhoQ, residues 284 288 289 292 302 303 SMMNNA","PhoP, residues 12 14 15 18 19 YHFSH (Escherichia coli, UniProt P23836)","Sort-seq, refers to: YFP reporter",E. coli,"PhoQ-PhoP variant library, together with: 10 µM Mg2+","relative to: high Mg2+ state, higher = stronger signaling",fold induction,28.1

# Repeated from above (block 3):
Oligonucleotide,E-score
CAGATTGA,-0.0816
CGAGCCCC,-0.317
